Assay results gathered from unrelated publications.
Lines come from different studies, so protocols differ. ± gives the spread as reported.
PTPN1: Tyrosine-protein phosphatase non-receptor type 1 (PTPN1, Homo sapiens, UniProt P18031)

The chains behind the UniProt entries cited, without tags or fusion partners. Where a name states a change or a piece, a line headed by the entry shows the natural chain unless it says otherwise. Residues count along the entry.
UniProt P18031, 1-321 limits assumed: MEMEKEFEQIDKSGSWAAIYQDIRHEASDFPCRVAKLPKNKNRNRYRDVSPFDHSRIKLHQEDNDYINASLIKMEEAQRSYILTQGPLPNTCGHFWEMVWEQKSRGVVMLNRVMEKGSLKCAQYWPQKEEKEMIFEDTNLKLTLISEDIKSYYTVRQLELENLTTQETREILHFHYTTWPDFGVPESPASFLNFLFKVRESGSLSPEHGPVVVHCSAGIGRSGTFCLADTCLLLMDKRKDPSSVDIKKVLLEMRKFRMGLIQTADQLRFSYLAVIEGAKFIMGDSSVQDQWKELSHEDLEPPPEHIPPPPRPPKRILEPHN
UniProt Q9UBN7, whole entry: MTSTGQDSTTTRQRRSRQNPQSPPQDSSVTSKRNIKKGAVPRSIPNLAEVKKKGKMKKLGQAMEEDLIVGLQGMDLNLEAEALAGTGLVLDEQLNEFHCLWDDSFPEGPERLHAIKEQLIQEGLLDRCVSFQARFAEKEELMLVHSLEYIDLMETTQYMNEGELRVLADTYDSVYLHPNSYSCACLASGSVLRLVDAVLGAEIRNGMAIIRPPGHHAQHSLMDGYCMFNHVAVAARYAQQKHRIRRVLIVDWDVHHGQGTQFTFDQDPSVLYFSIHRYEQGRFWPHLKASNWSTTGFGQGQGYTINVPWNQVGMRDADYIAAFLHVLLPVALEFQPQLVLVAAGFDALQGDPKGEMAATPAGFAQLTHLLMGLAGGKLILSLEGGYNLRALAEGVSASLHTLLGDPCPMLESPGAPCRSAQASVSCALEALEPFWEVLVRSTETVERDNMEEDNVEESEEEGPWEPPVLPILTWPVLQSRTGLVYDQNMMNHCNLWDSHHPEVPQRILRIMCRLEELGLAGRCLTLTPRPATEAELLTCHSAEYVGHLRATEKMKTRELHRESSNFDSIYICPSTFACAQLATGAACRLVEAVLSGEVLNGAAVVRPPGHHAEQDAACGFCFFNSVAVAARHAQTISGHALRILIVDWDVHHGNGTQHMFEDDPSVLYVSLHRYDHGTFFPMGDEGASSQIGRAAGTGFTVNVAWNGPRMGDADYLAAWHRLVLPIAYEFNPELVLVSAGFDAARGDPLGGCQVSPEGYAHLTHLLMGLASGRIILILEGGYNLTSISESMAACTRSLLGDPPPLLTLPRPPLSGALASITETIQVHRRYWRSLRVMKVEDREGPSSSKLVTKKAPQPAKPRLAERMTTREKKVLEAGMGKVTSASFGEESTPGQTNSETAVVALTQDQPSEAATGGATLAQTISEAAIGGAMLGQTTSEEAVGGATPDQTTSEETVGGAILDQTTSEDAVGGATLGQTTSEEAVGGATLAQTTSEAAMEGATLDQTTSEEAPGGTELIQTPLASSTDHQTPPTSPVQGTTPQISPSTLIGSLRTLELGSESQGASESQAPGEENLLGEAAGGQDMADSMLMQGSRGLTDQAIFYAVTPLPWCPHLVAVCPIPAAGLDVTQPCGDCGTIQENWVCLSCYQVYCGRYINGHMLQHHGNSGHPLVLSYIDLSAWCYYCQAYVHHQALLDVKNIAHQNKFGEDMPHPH
UniProt O15151, 23-111 limits assumed: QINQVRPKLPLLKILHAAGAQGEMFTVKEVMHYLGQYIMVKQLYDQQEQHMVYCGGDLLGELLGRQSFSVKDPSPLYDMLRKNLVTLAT
UniProt O60704, 25-377 limits assumed: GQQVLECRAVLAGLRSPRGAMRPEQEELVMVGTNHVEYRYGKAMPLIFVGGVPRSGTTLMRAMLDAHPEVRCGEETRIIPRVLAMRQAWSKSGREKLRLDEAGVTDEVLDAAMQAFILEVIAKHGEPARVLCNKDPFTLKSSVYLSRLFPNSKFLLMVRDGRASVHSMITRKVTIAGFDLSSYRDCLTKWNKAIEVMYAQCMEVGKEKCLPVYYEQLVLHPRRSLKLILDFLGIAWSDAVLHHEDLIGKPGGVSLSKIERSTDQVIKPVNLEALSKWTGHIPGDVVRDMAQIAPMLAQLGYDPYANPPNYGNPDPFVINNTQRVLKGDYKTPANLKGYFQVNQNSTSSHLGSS
UniProt Q16539, whole entry: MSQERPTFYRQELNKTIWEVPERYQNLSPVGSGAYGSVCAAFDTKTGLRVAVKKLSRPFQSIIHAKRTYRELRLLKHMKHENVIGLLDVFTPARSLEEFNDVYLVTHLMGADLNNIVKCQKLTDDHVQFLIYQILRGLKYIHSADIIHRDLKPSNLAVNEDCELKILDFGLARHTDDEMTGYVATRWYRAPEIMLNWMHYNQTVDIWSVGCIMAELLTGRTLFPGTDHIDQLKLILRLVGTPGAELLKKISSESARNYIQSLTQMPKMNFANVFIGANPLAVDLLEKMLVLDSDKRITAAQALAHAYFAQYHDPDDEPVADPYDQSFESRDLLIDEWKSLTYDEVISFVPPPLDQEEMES
UniProt P61981, whole entry: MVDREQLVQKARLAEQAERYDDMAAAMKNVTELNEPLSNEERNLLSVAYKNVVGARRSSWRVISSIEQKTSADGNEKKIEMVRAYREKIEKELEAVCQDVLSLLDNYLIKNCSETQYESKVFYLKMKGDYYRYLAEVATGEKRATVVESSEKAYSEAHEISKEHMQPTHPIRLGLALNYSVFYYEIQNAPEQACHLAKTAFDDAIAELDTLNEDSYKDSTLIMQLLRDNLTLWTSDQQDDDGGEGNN
UniProt P16083, whole entry: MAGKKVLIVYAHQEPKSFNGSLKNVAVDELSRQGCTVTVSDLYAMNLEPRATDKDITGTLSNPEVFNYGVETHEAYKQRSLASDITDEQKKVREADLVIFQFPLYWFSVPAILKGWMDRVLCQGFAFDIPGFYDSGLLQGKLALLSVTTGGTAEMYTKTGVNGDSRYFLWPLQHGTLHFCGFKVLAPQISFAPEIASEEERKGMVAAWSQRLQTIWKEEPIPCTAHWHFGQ
UniProt P25090, whole entry: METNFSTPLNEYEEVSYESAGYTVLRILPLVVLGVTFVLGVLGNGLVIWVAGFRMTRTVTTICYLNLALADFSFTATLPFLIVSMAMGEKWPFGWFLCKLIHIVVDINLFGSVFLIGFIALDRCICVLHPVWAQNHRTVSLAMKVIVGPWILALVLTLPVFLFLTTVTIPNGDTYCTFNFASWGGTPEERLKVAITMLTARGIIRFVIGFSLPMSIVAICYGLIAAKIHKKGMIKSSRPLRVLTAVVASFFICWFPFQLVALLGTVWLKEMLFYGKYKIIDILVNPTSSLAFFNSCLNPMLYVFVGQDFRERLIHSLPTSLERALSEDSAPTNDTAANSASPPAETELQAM
UniProt P00573, whole entry: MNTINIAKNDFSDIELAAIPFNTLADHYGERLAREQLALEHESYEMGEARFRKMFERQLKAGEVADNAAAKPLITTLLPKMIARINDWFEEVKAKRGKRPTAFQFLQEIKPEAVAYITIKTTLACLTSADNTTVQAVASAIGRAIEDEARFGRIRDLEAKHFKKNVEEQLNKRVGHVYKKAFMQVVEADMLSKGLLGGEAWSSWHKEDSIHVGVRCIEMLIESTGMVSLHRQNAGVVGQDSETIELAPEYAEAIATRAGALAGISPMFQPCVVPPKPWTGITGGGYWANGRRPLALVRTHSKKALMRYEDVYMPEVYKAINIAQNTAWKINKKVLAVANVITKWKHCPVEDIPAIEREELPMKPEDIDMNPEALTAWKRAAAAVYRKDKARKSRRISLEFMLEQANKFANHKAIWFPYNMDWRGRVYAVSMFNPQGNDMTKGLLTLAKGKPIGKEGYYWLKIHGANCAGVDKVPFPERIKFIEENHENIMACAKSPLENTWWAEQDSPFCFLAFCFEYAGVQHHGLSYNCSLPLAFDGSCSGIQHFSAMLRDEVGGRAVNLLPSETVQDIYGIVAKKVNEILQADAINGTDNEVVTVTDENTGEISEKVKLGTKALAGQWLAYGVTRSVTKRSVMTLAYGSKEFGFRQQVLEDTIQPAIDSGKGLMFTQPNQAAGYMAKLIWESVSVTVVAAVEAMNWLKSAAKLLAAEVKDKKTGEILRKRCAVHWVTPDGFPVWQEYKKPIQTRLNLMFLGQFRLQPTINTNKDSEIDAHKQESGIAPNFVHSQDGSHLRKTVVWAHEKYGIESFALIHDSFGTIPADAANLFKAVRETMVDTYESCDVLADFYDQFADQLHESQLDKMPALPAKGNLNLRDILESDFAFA
UniProt P48729, whole entry: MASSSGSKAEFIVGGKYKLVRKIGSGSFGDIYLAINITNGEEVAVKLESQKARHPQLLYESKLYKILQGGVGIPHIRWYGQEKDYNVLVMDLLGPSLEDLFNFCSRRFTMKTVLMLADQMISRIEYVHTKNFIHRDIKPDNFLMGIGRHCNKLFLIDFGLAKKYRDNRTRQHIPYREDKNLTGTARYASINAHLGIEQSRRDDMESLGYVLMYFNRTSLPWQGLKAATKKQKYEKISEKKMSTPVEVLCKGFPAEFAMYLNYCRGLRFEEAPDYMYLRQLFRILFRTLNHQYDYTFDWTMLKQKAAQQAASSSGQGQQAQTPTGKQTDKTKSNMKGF
UniProt Q00959, 23-1464 limits assumed: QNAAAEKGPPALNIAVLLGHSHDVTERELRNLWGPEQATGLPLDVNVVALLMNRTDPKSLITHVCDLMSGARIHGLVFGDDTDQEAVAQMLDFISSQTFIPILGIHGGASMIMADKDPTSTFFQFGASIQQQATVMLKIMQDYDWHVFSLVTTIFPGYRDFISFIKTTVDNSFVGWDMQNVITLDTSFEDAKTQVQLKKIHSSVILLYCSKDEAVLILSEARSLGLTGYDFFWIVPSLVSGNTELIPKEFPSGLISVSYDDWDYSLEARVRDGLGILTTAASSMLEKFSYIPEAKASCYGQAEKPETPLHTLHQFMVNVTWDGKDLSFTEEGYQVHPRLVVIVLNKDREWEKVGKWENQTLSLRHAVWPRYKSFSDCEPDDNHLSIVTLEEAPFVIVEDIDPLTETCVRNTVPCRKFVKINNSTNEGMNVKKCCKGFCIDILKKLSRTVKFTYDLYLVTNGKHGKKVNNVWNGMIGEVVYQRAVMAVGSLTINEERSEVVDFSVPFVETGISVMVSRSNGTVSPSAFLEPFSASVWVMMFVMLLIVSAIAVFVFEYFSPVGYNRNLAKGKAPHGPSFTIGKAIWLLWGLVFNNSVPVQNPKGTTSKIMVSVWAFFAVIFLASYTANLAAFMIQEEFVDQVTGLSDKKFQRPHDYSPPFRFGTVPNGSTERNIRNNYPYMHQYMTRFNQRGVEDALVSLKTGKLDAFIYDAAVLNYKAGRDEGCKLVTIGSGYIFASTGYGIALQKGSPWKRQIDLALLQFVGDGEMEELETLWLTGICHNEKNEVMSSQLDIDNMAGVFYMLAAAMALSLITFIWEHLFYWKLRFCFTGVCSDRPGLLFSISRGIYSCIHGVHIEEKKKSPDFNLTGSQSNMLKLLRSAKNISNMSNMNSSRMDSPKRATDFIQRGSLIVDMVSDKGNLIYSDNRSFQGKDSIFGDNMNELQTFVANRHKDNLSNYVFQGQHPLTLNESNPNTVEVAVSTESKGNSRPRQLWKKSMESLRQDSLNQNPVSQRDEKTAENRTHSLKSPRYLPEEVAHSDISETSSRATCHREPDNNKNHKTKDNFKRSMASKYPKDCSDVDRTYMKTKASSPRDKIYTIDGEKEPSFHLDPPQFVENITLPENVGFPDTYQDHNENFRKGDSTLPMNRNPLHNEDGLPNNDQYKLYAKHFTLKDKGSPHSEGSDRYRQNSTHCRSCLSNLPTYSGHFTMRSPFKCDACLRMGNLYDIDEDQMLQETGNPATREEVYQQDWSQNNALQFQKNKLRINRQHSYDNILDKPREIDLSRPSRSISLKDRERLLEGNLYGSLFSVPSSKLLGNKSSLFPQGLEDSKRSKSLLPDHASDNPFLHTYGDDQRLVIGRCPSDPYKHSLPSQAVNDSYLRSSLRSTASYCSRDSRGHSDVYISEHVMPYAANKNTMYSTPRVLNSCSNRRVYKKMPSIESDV

CC(=O)NCCCC[C@H](NC(=O)[C@H](CCCCNC(C)=O)NC(=O)[C@H](Cc1c[nH]cn1)NC(=O)[C@H](CCCNC(=N)N)NC(C)=O)C(=O)Nc1ccc2c(C)cc(=O)oc2c1 — kcat (Protein deacetylase HDAC6 (HDAC6, Homo sapiens, UniProt Q9UBN7); deacetylation, substrate; 25 °C, together with: 10 to 50 nM enzyme): 0.148 ± 0.016 s⁻¹
COc1ccc(C2=N[C@@H](c3cccc(Cl)c3)[C@@H](c3ccc(Cl)cc3)N2C(=O)N2CCNC(=O)C2)c(OC(C)C)c1 (relative stereo) — binding stoichiometry (Protein Mdm4 (MDM4, Homo sapiens, UniProt O15151); isothermal titration calorimetry; concentration not given, 298 K): 1.8 ± 0.4
C=C(C)C(=O)Nc1ccc(-c2c(-c3ccc(Oc4nccc(C)n4)c(F)c3)c3c(N)ncnc3n2C)cc1 — IC50 (MFE-296; cell growth, CellTiter-Glo; 120 h): 99.3 nM
CC[C@H](C)[C@H](NC(=O)[C@H](CC(=O)O)NC(=O)[C@@H]1CCCN1C(=O)[C@H](Cc1ccc(O)cc1)NC(=O)[C@H](Cc1ccc(O)cc1)NC(=O)[C@H](Cc1ccc(OS(=O)(=O)O)cc1)NC(=O)[C@H](CC(=O)O)NC(=O)[C@@H](NC(=O)[C@@H](N)C(C)C)[C@@H](C)O)C(=O)O — Vmax (Protein-tyrosine sulfotransferase 2 (Homo sapiens, UniProt O60704); sulfation of compound, substrate, LC-MS initial velocity; pH 7.5, 30 °C, reaction 2): 1.8 mU/mg protein
CC(C)C[C@H](NC(=O)[C@H](C)NC(=O)[C@H](CCCNC(=N)N)NC(=O)[C@H](CCCNC(=N)N)NC(=O)[C@H](CCCNC(=N)N)NC(=O)[C@H](C)NC(=O)[C@H](CC(C)C)NC(=O)[C@H](CCCNC(=N)N)NC(=O)[C@H](CO)NC(=O)[C@H](CCCCN)NC(=O)[C@H](CO)NC(=O)Cn1cc(COC(=O)[C@]2(C)C=C(C(=O)OC(C)(C)C)C(=O)CC2)nn1)C(=O)O — fraction bound (Mitogen-activated protein kinase 14 (MAPK14, Homo sapiens, UniProt Q16539); binding, competitor, fluorescence polarization; 2.5 µM; higher = less displacement): -0.0207
CC[C@H](C)[C@H](NC(=O)[C@@H]1CCCN1C(=O)CNC(=O)[C@H](CC(C)C)NC(=O)[C@H](COP(=O)(O)O)NC(=O)[C@H](CC(N)=O)NC(=O)[C@H](CO)NC(=O)[C@H](Cc1c[nH]cn1)NC(=O)[C@H](CCCNC(=N)N)NC(=O)[C@H](CCC(N)=O)NC(=O)[C@H](CC(C)C)NC(C)=O)C(=O)N[C@@H](Cc1ccccc1)C(=O)N[C@@H](CC(=O)O)C(N)=O — TΔS (14-3-3 protein gamma (YWHAG, Homo sapiens, UniProt P61981); isothermal titration calorimetry; 37 °C): -1.2 kcal/mol
CN(C)CCNC(=O)c1cccc2ccc(-c3ccc(-c4ccccc4)cc3)nc12 — binding free energy (Ribosyldihydronicotinamide dehydrogenase [quinone] (NQO2, Homo sapiens, UniProt P16083); from IC50 by Cheng-Prusoff): -9.87 kcal/mol
CC(C)C[C@H](NC(=O)[C@@H](NC(=O)[C@H](CC(C)C)NC(=O)[C@H](CS)NC(=O)CNS(=O)(=O)c1cccc2c(N(C)C)cccc12)C(C)C)C(=O)O — kcat (geranylgeranyltransferase type-I (Rattus norvegicus, UniProt P53610+Q04631); substrate, fluorescence; 30 °C, GGPP 10 µM/enzyme 10 nM, together with: GTP 30 µM): 0.052 ± 0.011 s⁻¹
COc1ccc(-c2cn3cccnc3n2)cc1NC(=O)C(C)C — affinity ratio (N-formyl peptide receptor 2 (FPR2, Homo sapiens, UniProt P25090); baseline: FPR2 over FPR1): ~20 fold
CC[C@H](C)[C@H](NC(=O)[C@H](CCCNC(=N)N)NC(=O)[C@H](CO)NC(=O)[C@@H](NC(=O)[C@@H](NC(=O)[C@H](CCCCN)NC(=O)[C@@H](N)C(C)C)[C@@H](C)CC)[C@@H](C)CC)C(=O)N[C@@H](Cc1ccccc1)C(=O)N[C@@H](CO)C(=O)N[C@@H](CCC(N)=O)C(=O)N[C@@H](CCCNC(=N)N)C(=O)N[C@@H](CO)C(=O)N[C@@H](Cc1ccccc1)C(=O)N[C@@H](CCCNC(=N)N)C(=O)N[C@@H](CCCNC(=N)N)C(=O)O — relative phosphorylation (CPK16 (Arabidopsis thaliana, UniProt Q7XJR9); peptide phosphorylation, substrate, scintillation proximity; 20 µM, 24 min, together with: 10 µM ATP; baseline: no peptide control, higher = more phosphorylation): 10 fold
CC/C=C\C/C=C\CCC/C=C/C=C/C=C\CCCC(=O)O — IC50 (T7 RNA polymerase (Enterobacteria phage T7, UniProt P00573); enzyme activity, inhibitor): > 100000 nM
CC(=O)N[C@@H](C)C(=O)N[C@@H](Cc1ccc(OP(=O)(O)O)cc1)C(=O)N[C@@H](Cc1ccc(OP(=O)(O)O)cc1)C(=O)N[C@@H](Cc1c[nH]c2ccccc12)C(=O)N[C@H](C(=O)N[C@@H](C)C(=O)N[C@@H](Cc1ccc(OP(=O)(O)O)cc1)C(=O)N[C@@H](C)C(=O)N[C@@H](C)C(N)=O)[C@@H](C)O — Km (PTPN1; substrate, continuous UV; pH 7.4, multiply phosphorylated peptides apparent): 1.7 ± 0.2 µM
Cc1ccc(-c2n[nH]cc2-c2ccnc3ccccc23)nc1 — selectivity ratio (Casein kinase I isoform alpha (CSNK1A1, Homo sapiens, UniProt P48729); baseline: IC50 CSNK1A1 over IC50 Yck2): > 3
N#Cc1c(-c2ccc(Cl)cc2Cl)n(-c2nc(-c3ccc(Cl)cc3)c3c(NC(=O)c4ccccc4)nnc-3[nH]2)[nH]c1=O — cell growth (SK-MEL-5; SRB; 10 µM): 0.62%
NC12CC3CC(F)(CC(C1)c1ccccc13)C2 — IC50 fold shift (Glutamate NMDA receptor; Grin1/Grin2a (Grin1/Grin2a, Rattus norvegicus, UniProt P35439+Q00959); ion current, channel blocker, whole-cell patch clamp; together with: 0.2 mM Mg2+; baseline: IC50 with over without Mg2+): ~5 fold
CC(=O)N[C@@H](C)C(=O)N[C@@H](Cc1ccc(OP(=O)(O)O)cc1)C(=O)N[C@@H](Cc1ccc(OP(=O)(O)O)cc1)C(=O)N[C@@H](CCC(=O)O)C(=O)N[C@H](C(=O)N[C@@H](CO)C(=O)N[C@@H](Cc1ccc(OP(=O)(O)O)cc1)C(=O)N[C@@H](C)C(=O)N[C@@H](C)C(N)=O)C(C)C — Km (PTPN1; substrate, continuous UV; pH 7.4, multiply phosphorylated peptides apparent): 2 ± 0.4 µM
CCOC(=O)c1c(-c2ccc(Cl)cc2Cl)n(-c2nc(-c3ccc(Cl)cc3)c3c(NC(=O)c4ccccc4)nnc-3[nH]2)[nH]c1=O — cell growth (SK-OV-3; SRB; 10 µM): 19.9%
CCc1c(C#N)c(SC(C(N)=O)c2ccc(F)cc2)nc(N2CCC(N(C)C)CC2)c1C#N (stereo not drawn) — Dmax (DNA (cytosine-5)-methyltransferase 1 (DNMT1, Homo sapiens, UniProt P26358); degrader, Western blot; HCT-116; 1 µM, 24 h; baseline: DMSO): 92 ± 1%

Excerpt of the above:
N#Cc1c(-c2ccc(Cl)cc2Cl)n(-c2nc(-c3ccc(Cl)cc3)c3c(NC(=O)c4ccccc4)nnc-3[nH]2)[nH]c1=O — cell growth (SK-MEL-5; SRB; 10 µM): 0.62%
